{"data": "Published values of several laboratories", "note": "Numbered parts are unrelated; each lists some results of a single study."}
{"data": "Sample 1", "target": "Sal-like protein 4, full length isoform B (SALL4, Homo sapiens, UniProt Q9UJQ4-2, residues 1-616)", "technique": "universal PBM", "molecule type": "double-stranded DNA, one strand shown", "medium": "in vitro", "tested at": "not given", "setting": "8-mer, flanks averaged, mean of replicates", "direction": "higher = stronger binding"}
{"Oligonucleotide": "TCTGTTAA", "E-score": 0.186}
{"Oligonucleotide": "TCAGCGGA", "E-score": -0.199}
{"Oligonucleotide": "GATGAGCA", "E-score": 0.0486}
{"Oligonucleotide": "GGTGTGCA", "E-score": -0.189}
{"data": "Sample 2", "target": "Interferon regulatory factor 3, full length, phosphomimetic (IRF3, Homo sapiens, UniProt Q14653, residues 1-427, S386D/S396D/S398D/S402D/T404D/S405D)", "technique": "protein-binding microarray", "molecule type": "double-stranded DNA, one strand shown", "medium": "in vitro", "tested at": "2540 nM top", "setting": "60-bp whole probe", "added": "salmon DNA 0.4 mg/ml", "baseline": "random background probes", "direction": "higher = stronger binding", "constant ends, left off below": "GCCTAGCAC … GTCTTGATTCGCTTGACGCTGCTG", "Construct (chain)": "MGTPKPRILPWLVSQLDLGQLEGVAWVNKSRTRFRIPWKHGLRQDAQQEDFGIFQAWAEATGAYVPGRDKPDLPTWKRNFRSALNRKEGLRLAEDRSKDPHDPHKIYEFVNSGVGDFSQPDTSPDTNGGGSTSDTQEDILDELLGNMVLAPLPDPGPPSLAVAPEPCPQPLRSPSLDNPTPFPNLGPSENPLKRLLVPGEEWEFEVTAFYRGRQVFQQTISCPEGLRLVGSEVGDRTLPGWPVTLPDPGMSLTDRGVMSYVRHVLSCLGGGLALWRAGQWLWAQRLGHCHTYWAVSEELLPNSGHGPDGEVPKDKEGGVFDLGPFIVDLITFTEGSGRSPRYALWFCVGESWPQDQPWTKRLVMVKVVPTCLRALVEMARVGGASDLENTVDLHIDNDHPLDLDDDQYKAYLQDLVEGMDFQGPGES"}
{"Oligonucleotide": "GACTGACTGGACTTTCGGGACGTGCTA", "fitted relative affinity": "-0.0185 z-score"}
{"Oligonucleotide": "TTAGCTCTCGGTCTCGGTTAGTGCTAG", "fitted relative affinity": "0.221 z-score"}
{"Oligonucleotide": "GACGGTAACGGACTGGGGACGTGCTAG", "fitted relative affinity": "-0.523 z-score"}
{"Oligonucleotide": "GACCAGGGGCCACAGCCTCAGTGCTAG", "fitted relative affinity": "-1.1 z-score"}
{"Oligonucleotide": "CACGGACTGGGTTTCGGGACGTGCTAG", "fitted relative affinity": "1.2 z-score"}
{"data": "Sample 3", "target": "Histone acetyltransferase KAT6A, both winged helices, GST fusion (KAT6A, Homo sapiens, UniProt Q92794, residues 1-181)", "technique": "protein binding microarray", "molecule type": "double-stranded DNA, one strand shown", "medium": "in vitro", "tested at": "not given", "setting": "8-mer, flanks averaged, mean of 2 arrays, mostly near background", "baseline": "not given", "direction": "higher = stronger binding", "Construct (chain)": "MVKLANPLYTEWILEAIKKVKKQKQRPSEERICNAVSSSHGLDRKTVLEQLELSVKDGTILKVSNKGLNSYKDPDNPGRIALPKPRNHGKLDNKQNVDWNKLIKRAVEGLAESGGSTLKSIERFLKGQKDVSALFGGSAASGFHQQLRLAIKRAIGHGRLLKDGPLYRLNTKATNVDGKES"}
{"Oligonucleotide": "ACGCAGCA", "E-score": 0.0925}
{"Oligonucleotide": "AAAGCGGC", "E-score": 0.295}
{"Oligonucleotide": "AGCATTAT", "E-score": -0.125}
{"Oligonucleotide": "GTGCATCA", "E-score": -0.0577}
{"data": "Single results of other studies"}
{"Substance": "PhoQ, residues 284 288 289 292 302 303 SLANIV", "target": "PhoP, residues 12 14 15 18 19 NIMAP (Escherichia coli, UniProt P23836)", "test": "Sort-seq, measured: YFP reporter", "test system": "E. coli", "setting": "PhoQ-PhoP variant library, added: 10 µM Mg2+", "scale": "baseline: high Mg2+ state, higher = stronger signaling", "endpoint": "fold induction", "result": 0.668}
{"note": "Repeated from above (sample 2):"}
{"Oligonucleotide": "GACCAGGGGCCACAGCCTCAGTGCTAG", "fitted relative affinity": "-1.1 z-score"}
{"Oligonucleotide": "CACGGACTGGGTTTCGGGACGTGCTAG", "fitted relative affinity": "1.2 z-score"}
